# Results from different studies.
# Parts stem from different laboratories: compare values within a part only. Substitutions count along the parent as printed.

# Set 1
# Target: Histone acetyltransferase KAT6A, winged helix 2, GST fusion (KAT6A, Homo sapiens, UniProt Q92794, residues 85-181)
# Method: protein binding microarray
# Form: double-stranded DNA, one strand shown
# Medium: in vitro
# Tested at: not given
# Setting: 8-mer, flanks averaged, mean of 2 arrays, mostly near background
# Reference: not given
# Reading: higher = stronger binding
# Residues (chain): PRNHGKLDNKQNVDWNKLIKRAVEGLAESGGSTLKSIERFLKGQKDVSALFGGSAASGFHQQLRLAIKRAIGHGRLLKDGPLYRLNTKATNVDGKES
Oligonucleotide,E-score
AGTTTCAT,0.136
AGAGGCAG,-0.00936
GAGCACAC,-0.0965
ACGAATAT,0.0707
AGCTGGTA,-0.124
AAATTACG,-0.0529
ATTACTCC,-0.0455
AAGCAATT,0.131
AACGGGCG,0.1
GCGTGCCC,0.112
CTTGGAGC,0.0238
CCCCCGAC,0.11
AGGGTCGA,0.0485
GGGCGCCC,0.333
CGACGACC,0.106
CTTAGGCC,-0.0199
AAGATCGT,-0.146
AATTGCTG,0.0212
GGGATTTA,0.00253
TAAGCTAA,-0.0233
ATGGGGCG,0.0418

# Set 2
# Target: CCNE1, cyclin fold, Cln2 fusion (human)
# Method: yeast growth competition, sequencing
# Medium: yeast
# Setting: strong parent motif
# Reference: not given
# Reading: higher = stronger binding
# Starting sequence: CDKN1A docking peptide (human); SKACRRLFGPVDS; partner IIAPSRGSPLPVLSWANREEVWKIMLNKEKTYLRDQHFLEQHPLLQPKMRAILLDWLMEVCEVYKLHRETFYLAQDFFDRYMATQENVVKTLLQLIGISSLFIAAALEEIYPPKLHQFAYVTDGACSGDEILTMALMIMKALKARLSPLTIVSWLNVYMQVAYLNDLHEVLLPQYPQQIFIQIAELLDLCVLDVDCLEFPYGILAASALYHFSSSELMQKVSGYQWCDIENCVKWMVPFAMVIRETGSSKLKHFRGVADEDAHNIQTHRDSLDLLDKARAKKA
Substitution,normalised enrichment score
SKFCRRLFGPVDS [A3F],1.65
SKACRRLFGTVDS [P10T],5.44
SKACRRLFGFVDS [P10F],3.35
SKPCRRLFGPVDS [A3P],2.64
SKACRRSFGPVDS [L7S],-0.0264
SKACLRLFGPVDS [R5L],0.414
SKACRRLFVPVDS [G9V],5.23
SKANRRLFGPVDS [C4N],1.4
SKACRRDFGPVDS [L7D],0.114
SKACRRLFGPVPS [D12P],4.76
SKCCRRLFGPVDS [A3C],4.56
SKACRRLFGPGDS [V11G],6.01
SKACRRLVGPVDS [F8V],0.397

# Set 3
# Target: RNA binding protein fox-1 homolog 2, RRM domain, GST-SBP tag (RBFOX2, Homo sapiens, UniProt O43251-10, residues 100-194)
# Method: RNA Bind-n-Seq
# Form: RNA
# Medium: in vitro
# Tested at: 365 nM
# Setting: natural RNA segment, single round, ends assumed
# Reference: no-protein control
# Reading: higher = stronger binding
# Constant ends, left off below: GGGAGUUCUACAGUCCGACGAUC … UGGAAUUCUCGGGUGCCAA
# Target sequence (chain): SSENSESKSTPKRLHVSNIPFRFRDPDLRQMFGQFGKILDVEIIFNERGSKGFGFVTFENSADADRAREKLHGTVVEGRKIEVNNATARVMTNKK
Oligonucleotide,RBNS enrichment (R)
ACUAAUAAAGAACAUUUGGUUGGUCAGAUCCACUUUUAACCUCUGGUGCUGUACAGAAGGCAUUAAACUAAUGUAAACUACAUCCUAUGUUUGGUUCAUUUGAAAUUUUG,0.385
GCAAAAAGCCACCAAAUGAAGGGAUUCUAUCCAGCAAGAUCCUGUCCAAGAGUAGCCUGUGGAAUCUGAUCAGUUACUUUAAAAAAUGACUCCUUAUUUUUUAAAUGUUU,0.491
AGUGAAUGGGAAACACAUGUUCCUCUCUCCAGGUUACACUGAAACCUGUGUAGUGUGUACAGAGUGGGUAGGGACUAAACACAGGCCUAGCGUCUAUGAGUCUGUAUUCC,0.448
AAAGUUUUCCUUUGUAAUCACUCCCAUUUUUACUUAACAACCAACUUGUUGUGGCUCUUAUUUCUGAAUUCAAAGCUUGUGAAAAAAUAAAGAAAAUGAACUGCCCACUG,1.28
AGUGAUUUCAAUUGCACCAUGACUUCUUCACUAAAACCACAAAGUCCUGCUUAAAACUAUGGAAAACCUAACCUGAUUAGAGCCUUGACUAUUUUGAAGAUUAAAUGCAC,0.738
CAGGGUGACUUCAGUGACAUUCCUUCCCUCCUUCACAAGCACGAAAAACUCGUUCGGAGAAAAGACAGCUUCUGCCUUCCCUACCAGGCGGACAGGGUACUCACUGUGCC,0.555
GAAGUUCUGCUCCUUAGCCAUCCUUUCCUGUAAUUUAUGUCUCUCCCUGAGGUGAGGUUCAGGUUUAUGUCCCUGUCUGUGGCAUAGAUACAUCUCAGUGACCCAGGGUG,0.272
AAUAAUAGACUGUUUCAUUGAAAGAAUGAAAAGAGGCCAGGUGAAGUAGUAAUUUAUAAAUUUAGUAUUUGCAGUGGUUCACGCCUGUAAUCCCACCACUUUGGGAGGCC,0.429
AAGGACUCUUAAGCGUGAGGCCAAGGAGCCACGUCCCUUCCCAGUCUGCCUGGCCCAGGGGGGCUGCCCCCAUUCCUGGAGCCCAGGGGCCCAGCUUGCAAUUGCUAGUG,0.255
CCCCUGGUGGCCGUGCCAACAUCACCAGCCUGGGCUAAAGCCCCUAGGCCUGCAGGCCACUUGGGGAUGGGGGAUGGGACACCUGAGGACAUUCUGAGACUUCCUUUCUU,0.208
UAAUUAAUUGAAUAUAAUAGGAUACCUAGCAAAUGUUUUCACAAAAGUGAAUCUUUGUGAUUUUCAUUCUAGAAAACAAUGUUUUAAAUCACCCAAAUUUAAUCACAUGU,0.41
CAGUACCUCUGUGGUUAAAAAUGGAAACUGUUCUCCUCCCCAGCCCCACUCCCUGUUCCCUACCCAUAUAGGCCCUAAAUUUGGGAAAAAUCACUAUUAAUUUCUGAAUC,0.572

# Set 4
# Target: Interferon regulatory factor 1, DNA-binding domain (IRF1, Homo sapiens, UniProt P10914, residues 1-114)
# Method: protein-binding microarray
# Form: hairpin DNA
# Medium: in vitro
# Tested at: not given
# Setting: whole hairpin DNA, median over replicate spots
# Reference: not given
# Reading: higher = stronger binding
# Residues (chain): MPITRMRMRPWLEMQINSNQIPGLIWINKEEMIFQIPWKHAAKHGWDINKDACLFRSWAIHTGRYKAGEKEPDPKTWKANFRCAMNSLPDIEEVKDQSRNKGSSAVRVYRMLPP
Oligonucleotide,median fluorescence
GAGGCCCGAAAGCGAAGCGCCTCCTGGCGCTTCGCTTTCGGGCCTCACAC (5mC at 30),562 a.u.
GAGGCCCGAACGTGAAACGCCTCCTGGCGTTTCACGTTCGGGCCTCACAC,526 a.u.
GAGGCCGGAAAGTGAAACGCCTCCTGGCGTTTCACTTTCCGGCCTCACAC,1490 a.u.
GAGGCCCCGAAGCGAAACGCCTCCTGGCGTTTCGCTTCGGGGCCTCACAC (5mC at 8),578 a.u.
GAGGCCCGCAAGTGAAACGCCTCCTGGCGTTTCACTTGCGGGCCTCACAC,588 a.u.
GAGGCCCCAAAGTGAAACGCCTCCTGGCGTTTCACTTTGGGGCCTCACAC (5mC at 8),972 a.u.
GAGGCCCCGAAGTGAAACGCCTCCTGGCGTTTCACTTCGGGGCCTCACAC (5mC at 8 38),594 a.u.
GAGGCCCGAAAGTGAAATGCCTCCTGGCATTTCACTTTCGGGCCTCACAC,706 a.u.
GAGGCCCGAATGCGAAACGCCTCCTGGCGTTTCGCATTCGGGCCTCACAC,638 a.u.
GAGGCCCGAAAGCCGAACGCCTCCTGGCGTTCGGCTTTCGGGCCTCACAC,526 a.u.
GAGGCCCGAAAGCGAACGGCCTCCTGGCCGTTCGCTTTCGGGCCTCACAC (5mC at 29),552 a.u.
GAGGCCCGCGAGCGAAACGCCTCCTGGCGTTTCGCTCGCGGGCCTCACAC (5mC at 37),464 a.u.
GAGGCCCGAAAGGGAAACGCCTCCTGGCGTTTCCCTTTCGGGCCTCACAC,576 a.u.
GAGGCCCGAAAGCCGAACGCCTCCTGGCGTTCGGCTTTCGGGCCTCACAC (5mC at 32),508 a.u.
GAGGCCCGAAAGTGAAAGGCCTCCTGGCCTTTCACTTTCGGGCCTCACAC (5mC at 29),1080 a.u.
GAGGCCCGAAACGGAAACGCCTCCTGGCGTTTCCGTTTCGGGCCTCACAC (5mC at 12),552 a.u.

# Set 5
# Target: Fragile X messenger ribonucleoprotein 1, C-terminal low-complexity region (Fmr1, Mus musculus, UniProt P35922)
# Method: RNA Bind-n-Seq
# Form: RNA
# Medium: in vitro
# Tested at: 200 nM
# Setting: whole 134-nt RNA, ends assumed
# Added: 150 mM LiCl
# Reference: input library
# Reading: higher = stronger binding
# All molecules: 7-deaza-guanosine replaces G
# Constant ends, left off below: GGGAGUUCUACAGUCCGACGAUC … UGGAAUUCUCGGGUGUCAAGG
Oligonucleotide,log2 enrichment
UCAAGUCCUGUGCUACACAUCGUAUGUACCGAAUCGGAGGUUUUUUUGGUUUGGAAAGUAUUAUGUUACGCCGUUCGGAUCUGCACUUCC,-2.27
CCUGUGCUACACAUCGUAUGUACCGAAUCGGGGAAAAAAGGAAAAAAGGGGAAAAAAGGGAAAGUAUUAUGUUACGCCGUUCGGAUCUGC,0.147
GCAGGAAGUAAAAACAAAUGGAAAUGCUUCGGAUAGUGGCAGGGGUGGGGGUUGCUAAGGAAAGGGUGGGAUGGGAGUCGGUAAAGAGUU,0.862
UGGGAGGUGGAUUUUGUUUAUUUUUUUAGCUCAUUUCCAGAGGUGGGAAUUUUUUUUUAAUAUGUGUCAUGAAUAAAGUUGUUUUUGAAA,-0.543
GUCCUGUGCUACACAUCGUAUGUACCGAAUCGGAAAAAAAGGAAAAAGGUUUUUUUGGAAAGUAUUAUGUUACGCCGUUCGGAUCUGCAC,-2.54
UGGCCCUGGUGGCAUGCGGGGAGGAAGAGGUGGCCUCAUGGAUCGUGGUGGUCUCGGUGGAAUGUUCAGAGGUGGCCGUGGUGGAGACAG,0.493
CUGUGCUACACAUCGUAUGUACCGAAUCGGGGUUUUUUUGGGGAAAAAGGGGUUUUUGGGGAAAGUAUUAUGUUACGCCGUUCGGAUCUG,-1.93

# Set 6
# Target: Interferon regulatory factor 5, full length, phosphomimetic (IRF5, Homo sapiens, UniProt Q13568-2, residues 1-514, S451D/S453D/S456D/S462D)
# Method: protein-binding microarray
# Form: double-stranded DNA, one strand shown
# Medium: in vitro
# Tested at: 940 nM top
# Setting: 60-bp whole probe
# Added: salmon DNA 0.4 mg/ml
# Reference: random background probes
# Reading: higher = stronger binding
# Constant ends, left off below: GCCTAGCAC … GTCTTGATTCGCTTGACGCTGCTG
Oligonucleotide,fitted relative affinity [z-score]
TTCGGTATCCTACTGCTTTAGTGCTAG,0.38
TTAGGACGGGGACTGGGTTAGTGCTAG,-0.0368
AGATTTTTTTTCCTAATTGAGTGCTAG,1.11
TCATGTCTTCCCCTCTCACTGTGCTAG,0.775
CACGATATCGGGTATCGAGACGTGCTA,1.08
TCAGGTTTCGGTCTCGGTTAGTGCTAG,14
GCCGGACTGGGGTTTCGGGACGTGCTA,1.94
TTAGATCTCAGTATCGCTTAGTGCTAG,2.01
GACGATTTCAGTTTCTAGACGTGCTAG,2.08
TTAGAACTGAGTATCGGTTAGTGCTAG,4.14
ATAGGTATCGGGACTGGGTTAGTGCTA,3.29
TTTTTTTTTTTTTTACTTCGGTGCTAG,1.39
TCACCTTTCTCCATGGGACTGTGCTAG,0.774
TTAGAACTGGGGACTGGCTTAGTGCTA,-0.0326
TCAACTTCTCTTTTGGCACTGTGCTAG,0.63
TTAGAACTGGGGTAGCGATTAGTGCTA,0.111
GACGGACTGGGTCTCGGGTCGTGCTAG,0.086
GACGGTATTCTTTTCCTGACGTGCTAG,0.629
